{"data": "Experimental data from different studies", "note": "Every numbered part comes from another study and shows a few of its results, in no order. “And” joins repeats or separate records; there may be more than shown.", "sequence of UniProt P08631 (whole entry, looked up)": "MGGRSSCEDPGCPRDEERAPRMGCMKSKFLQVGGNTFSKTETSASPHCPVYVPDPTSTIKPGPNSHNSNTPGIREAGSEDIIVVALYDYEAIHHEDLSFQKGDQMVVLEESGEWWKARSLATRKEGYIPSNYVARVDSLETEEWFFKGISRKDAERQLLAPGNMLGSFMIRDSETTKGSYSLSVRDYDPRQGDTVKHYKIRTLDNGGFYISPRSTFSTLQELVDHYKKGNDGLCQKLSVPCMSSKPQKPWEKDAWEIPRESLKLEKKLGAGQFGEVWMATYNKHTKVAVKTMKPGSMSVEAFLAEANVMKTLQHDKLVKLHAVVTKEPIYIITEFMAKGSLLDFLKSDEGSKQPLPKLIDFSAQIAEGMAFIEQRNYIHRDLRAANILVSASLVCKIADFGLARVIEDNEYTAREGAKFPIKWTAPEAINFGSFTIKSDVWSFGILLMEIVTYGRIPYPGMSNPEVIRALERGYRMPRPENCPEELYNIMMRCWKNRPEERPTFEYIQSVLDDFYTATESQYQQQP", "sequence of UniProt Q15759 (whole entry, looked up)": "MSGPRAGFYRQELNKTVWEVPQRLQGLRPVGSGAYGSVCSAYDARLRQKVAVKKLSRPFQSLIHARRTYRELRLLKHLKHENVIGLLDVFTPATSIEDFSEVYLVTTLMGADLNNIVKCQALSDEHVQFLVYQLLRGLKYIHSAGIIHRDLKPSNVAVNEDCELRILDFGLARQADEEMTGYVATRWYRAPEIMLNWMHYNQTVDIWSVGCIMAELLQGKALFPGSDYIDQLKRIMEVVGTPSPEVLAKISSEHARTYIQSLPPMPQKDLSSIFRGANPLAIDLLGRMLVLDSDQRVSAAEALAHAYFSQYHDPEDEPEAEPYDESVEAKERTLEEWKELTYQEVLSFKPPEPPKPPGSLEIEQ", "sequence of UniProt P53671 (whole entry, looked up)": "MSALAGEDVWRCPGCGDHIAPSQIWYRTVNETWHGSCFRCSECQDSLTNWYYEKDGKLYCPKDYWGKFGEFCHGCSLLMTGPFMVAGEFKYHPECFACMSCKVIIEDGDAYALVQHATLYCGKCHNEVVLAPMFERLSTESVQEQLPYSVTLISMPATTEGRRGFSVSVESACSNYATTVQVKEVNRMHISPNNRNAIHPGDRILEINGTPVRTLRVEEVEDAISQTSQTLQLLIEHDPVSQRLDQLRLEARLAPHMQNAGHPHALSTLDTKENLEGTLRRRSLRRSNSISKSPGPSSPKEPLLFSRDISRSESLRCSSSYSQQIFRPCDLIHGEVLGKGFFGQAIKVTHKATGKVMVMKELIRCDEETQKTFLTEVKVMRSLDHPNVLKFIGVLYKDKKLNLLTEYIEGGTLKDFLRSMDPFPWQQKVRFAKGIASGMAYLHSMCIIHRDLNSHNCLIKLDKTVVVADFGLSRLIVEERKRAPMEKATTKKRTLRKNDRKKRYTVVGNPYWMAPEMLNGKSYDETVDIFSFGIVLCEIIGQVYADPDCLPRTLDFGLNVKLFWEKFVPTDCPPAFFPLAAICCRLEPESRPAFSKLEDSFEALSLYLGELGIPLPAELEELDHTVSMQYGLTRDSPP", "sequence of UniProt P30291 (whole entry, looked up)": "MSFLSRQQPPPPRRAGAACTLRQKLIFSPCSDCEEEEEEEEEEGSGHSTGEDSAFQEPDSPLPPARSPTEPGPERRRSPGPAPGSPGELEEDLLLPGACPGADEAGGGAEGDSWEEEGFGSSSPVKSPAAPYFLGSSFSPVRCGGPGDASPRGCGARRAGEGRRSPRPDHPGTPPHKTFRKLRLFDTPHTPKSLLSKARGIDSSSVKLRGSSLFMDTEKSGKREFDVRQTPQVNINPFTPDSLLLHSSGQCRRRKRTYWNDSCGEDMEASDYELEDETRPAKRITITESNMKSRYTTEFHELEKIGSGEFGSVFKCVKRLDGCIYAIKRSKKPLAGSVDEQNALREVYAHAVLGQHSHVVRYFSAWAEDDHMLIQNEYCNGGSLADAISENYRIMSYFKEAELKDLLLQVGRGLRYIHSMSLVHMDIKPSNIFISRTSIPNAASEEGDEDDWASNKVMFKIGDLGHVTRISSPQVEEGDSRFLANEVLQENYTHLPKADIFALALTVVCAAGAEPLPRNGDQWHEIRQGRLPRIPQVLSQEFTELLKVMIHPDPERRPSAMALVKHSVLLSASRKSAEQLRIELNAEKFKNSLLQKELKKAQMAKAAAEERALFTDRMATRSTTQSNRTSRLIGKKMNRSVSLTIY", "sequence of UniProt Q9UK32 (whole entry, looked up)": "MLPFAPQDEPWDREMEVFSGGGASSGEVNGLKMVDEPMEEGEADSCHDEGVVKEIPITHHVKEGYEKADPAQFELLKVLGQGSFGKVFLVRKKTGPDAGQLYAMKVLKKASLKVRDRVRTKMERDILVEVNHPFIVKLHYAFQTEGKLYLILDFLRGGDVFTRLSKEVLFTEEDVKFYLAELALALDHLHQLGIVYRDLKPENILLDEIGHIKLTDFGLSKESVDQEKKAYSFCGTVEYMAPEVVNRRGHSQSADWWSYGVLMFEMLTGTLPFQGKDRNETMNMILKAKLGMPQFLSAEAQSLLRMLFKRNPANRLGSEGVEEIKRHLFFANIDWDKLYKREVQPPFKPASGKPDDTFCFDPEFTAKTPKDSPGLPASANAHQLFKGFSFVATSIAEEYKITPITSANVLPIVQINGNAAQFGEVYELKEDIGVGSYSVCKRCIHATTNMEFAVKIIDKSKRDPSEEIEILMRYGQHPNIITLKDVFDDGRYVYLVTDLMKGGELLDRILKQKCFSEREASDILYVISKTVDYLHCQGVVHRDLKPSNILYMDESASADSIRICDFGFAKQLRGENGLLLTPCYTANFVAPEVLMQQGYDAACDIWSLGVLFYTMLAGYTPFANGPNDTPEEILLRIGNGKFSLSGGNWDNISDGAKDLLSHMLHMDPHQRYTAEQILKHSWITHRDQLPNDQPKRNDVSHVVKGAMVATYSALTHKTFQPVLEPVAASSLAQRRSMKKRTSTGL", "sequence of UniProt Q14680 (whole entry, looked up)": "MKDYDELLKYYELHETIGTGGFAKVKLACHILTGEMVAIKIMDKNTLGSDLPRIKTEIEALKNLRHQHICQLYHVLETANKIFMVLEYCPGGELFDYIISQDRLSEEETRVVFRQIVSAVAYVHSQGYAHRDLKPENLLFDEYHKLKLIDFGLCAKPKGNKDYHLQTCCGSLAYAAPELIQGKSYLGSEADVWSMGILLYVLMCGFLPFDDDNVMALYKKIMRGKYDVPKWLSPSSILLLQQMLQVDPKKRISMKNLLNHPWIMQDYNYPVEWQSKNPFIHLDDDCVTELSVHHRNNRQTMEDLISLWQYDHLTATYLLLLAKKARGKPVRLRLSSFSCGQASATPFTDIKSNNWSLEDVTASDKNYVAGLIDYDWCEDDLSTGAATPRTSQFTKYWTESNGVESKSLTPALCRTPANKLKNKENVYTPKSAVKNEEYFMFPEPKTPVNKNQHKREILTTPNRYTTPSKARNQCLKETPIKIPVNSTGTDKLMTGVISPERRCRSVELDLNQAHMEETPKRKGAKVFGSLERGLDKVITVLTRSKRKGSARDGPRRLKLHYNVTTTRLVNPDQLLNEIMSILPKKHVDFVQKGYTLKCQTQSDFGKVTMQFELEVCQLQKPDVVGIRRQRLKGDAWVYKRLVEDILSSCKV", "sequence of UniProt Q99759 (whole entry, looked up)": "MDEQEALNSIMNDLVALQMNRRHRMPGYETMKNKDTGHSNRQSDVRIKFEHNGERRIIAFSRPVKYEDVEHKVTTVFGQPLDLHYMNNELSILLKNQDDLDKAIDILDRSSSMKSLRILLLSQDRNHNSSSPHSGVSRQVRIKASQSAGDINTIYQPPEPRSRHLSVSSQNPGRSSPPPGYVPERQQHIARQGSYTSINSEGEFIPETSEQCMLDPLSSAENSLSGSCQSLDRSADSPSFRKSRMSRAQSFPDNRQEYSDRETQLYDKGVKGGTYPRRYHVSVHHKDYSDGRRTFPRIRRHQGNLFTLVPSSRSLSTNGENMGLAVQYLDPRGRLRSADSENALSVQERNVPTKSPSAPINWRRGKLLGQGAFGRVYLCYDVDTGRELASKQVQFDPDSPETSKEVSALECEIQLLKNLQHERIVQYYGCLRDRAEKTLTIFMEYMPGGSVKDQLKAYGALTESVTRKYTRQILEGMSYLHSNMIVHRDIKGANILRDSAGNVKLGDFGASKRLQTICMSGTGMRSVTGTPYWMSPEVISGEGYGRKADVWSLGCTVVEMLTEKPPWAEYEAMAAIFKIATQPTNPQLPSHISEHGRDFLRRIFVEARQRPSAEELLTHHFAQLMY"}
{"data": "Block 1", "host": "mouse", "sample": "microsomes or S9", "concentration": "2 µM", "time": "0.5 h"}
{"Compound": "OC1CCCC1Oc1cc(-n2nc3c(c2Cl)CCCC3)c(F)cc1Cl (centres unmarked)", "remaining compound [%]": 0}
{"Compound": "CCc1[nH]nc(NCc2cc(Cl)cc(Cl)c2OC)c1C", "remaining compound [%]": 31}
{"Compound": "O=c1c2sccc2ncn1-c1ccc(F)c(Cl)c1", "remaining compound [%]": 0.543}
{"Compound": "COC(=O)N1CC(C)CN(c2ccc(NC(=O)Nc3cc(C)ccc3OC)cc2)S1(=O)=O (centres unmarked)", "remaining compound [%]": 9.76}
{"Compound": "Nc1cc(C2=NOC3CCCCC23)nc(C(=O)O)c1Cl (centres unmarked)", "remaining compound [%]": 76.3}
{"Compound": "CCCC[S+]([O-])c1[nH]c2c(C(C)C)cccc2c(=O)c1C(C)=O (centres unmarked)", "remaining compound [%]": 0.498}
{"Compound": "Cn1nccc1-c1cccc(-c2ccc(=O)n(C)n2)c1", "remaining compound [%]": 2.71}
{"Compound": "NC(=O)c1ccccc1NC(=O)Cc1ccccc1C(=O)O", "remaining compound [%]": 93.1}
{"data": "Block 2", "Structure (SMILES)": "Cn1nc(C(F)(F)F)cc1-c1cnc(N2CCc3cc(S(=O)(=O)Nc4c(F)cc(Cl)cc4F)cc(N4CCCC4=O)c32)nc1", "observed": "cell-free assay", "technique": "competition with immobilised ligand", "concentration": "1 µM"}
{"target": "Serine/threonine-protein kinase MRCK beta (CDC42BPB, Homo sapiens, UniProt Q9Y5S2)", "remaining binding [%]": 94}
{"target": "Tyrosine-protein kinase ABL1, non-phosphorylated (ABL1, Homo sapiens, UniProt P00519, F317L)", "remaining binding [%]": 60}
{"target": "Wee1-like protein kinase (WEE1, Homo sapiens, UniProt P30291)", "remaining binding [%]": 88}
{"target": "Dual specificity protein kinase TTK (TTK, Homo sapiens, UniProt P33981)", "remaining binding [%]": 97}
{"target": "Maternal embryonic leucine zipper kinase (MELK, Homo sapiens, UniProt Q14680)", "remaining binding [%]": 100}
{"target": "Dual specificity tyrosine-phosphorylation-regulated kinase 1B (DYRK1B, Homo sapiens, UniProt Q9Y463)", "remaining binding [%]": 100}
{"target": "Tyrosine-protein kinase HCK (HCK, Homo sapiens, UniProt P08631)", "remaining binding [%]": 95}
{"target": "Mitogen-activated protein kinase 11 (MAPK11, Homo sapiens, UniProt Q15759)", "remaining binding [%]": 100}
{"target": "Hepatocyte growth factor receptor (MET, Homo sapiens, UniProt P08581, Y1235D)", "remaining binding [%]": 94}
{"target": "LIM domain kinase 2 (LIMK2, Homo sapiens, UniProt P53671)", "remaining binding [%]": 100}
{"target": "Mitogen-activated protein kinase kinase kinase 3 (MAP3K3, Homo sapiens, UniProt Q99759)", "remaining binding [%]": 89}
{"target": "Ribosomal protein S6 kinase alpha-6, C-terminal kinase domain (RPS6KA6, Homo sapiens, UniProt Q9UK32)", "remaining binding [%]": 84}
{"target": "Phosphatidylinositol 4,5-bisphosphate 3-kinase catalytic subunit alpha isoform (PIK3CA, Homo sapiens, UniProt P42336, E542K)", "remaining binding [%]": 85}
{"target": "Epidermal growth factor receptor (EGFR, Homo sapiens, UniProt P00533, L858R)", "remaining binding [%]": 100}
{"target": "Non-receptor tyrosine-protein kinase TYK2, JH1 (TYK2, Homo sapiens, UniProt P29597)", "remaining binding [%]": 78}
{"data": "Block 3", "cell line": "mouse MPNST tumor cells", "technique": "high-content immunofluorescence imaging", "item": "nuclear SOX9", "concentration": "10 µM", "time": "12 h", "notes": "mean of 2 replicates", "baseline": "DMSO control", "reading": "higher = more nuclear SOX9"}
{"SMILES": "CC[N+](C)(CC)CCC[n+]1c(-c2ccccc2)c2cc(N)ccc2c2ccc(N)cc21", "nuclear SOX9 intensity": "97.7 % of DMSO"}
{"SMILES": "Nc1ccc(S(=O)(=O)Nc2ncccn2)cc1", "nuclear SOX9 intensity": "93.7 % of DMSO"}
{"SMILES": "CC1(C)S[C@@H]2[C@H](NC(=O)[C@H](C(=O)O)c3ccsc3)C(=O)N2[C@H]1C(=O)O", "nuclear SOX9 intensity": "96.9 % of DMSO"}
{"SMILES": "CNC(=O)Nc1ccc2c(c1)CC[C@@]21OC(=O)N(CC(=O)N(Cc2ccc(F)cc2)[C@@H](C)C(F)(F)F)C1=O", "nuclear SOX9 intensity": "102 % of DMSO and 98.9 % of DMSO"}
{"SMILES": "CCCN(CCc1cccs1)[C@H]1CCc2c(O)cccc2C1", "nuclear SOX9 intensity": "114 % of DMSO"}
{"SMILES": "Cc1ccc(OCCSc2ncccn2)c(Br)c1", "nuclear SOX9 intensity": "105 % of DMSO"}
{"SMILES": "Clc1ccc(C(c2ccccc2Cl)C(Cl)Cl)cc1 (centres unmarked)", "nuclear SOX9 intensity": "126 % of DMSO and 109 % of DMSO"}
{"SMILES": "O=C(/C=C/N1C[C@H]2C[C@@H]1CN2c1ccccn1)c1ccccc1O", "nuclear SOX9 intensity": "96.9 % of DMSO"}
{"SMILES": "NC(N)=Nc1nc(CSCC/C(N)=N/S(N)(=O)=O)cs1", "nuclear SOX9 intensity": "106 % of DMSO"}
{"data": "Block 4", "cell line": "A-375", "concentration": "100 µM", "time": "18 h"}
{"SMILES": "CC[C@H](C)C(=O)O[C@H]1C[C@@H](C)C=C2C=C[C@H](C)[C@H](CC[C@@H]3C[C@@H](O)CC(=O)O3)[C@H]21", "viability [%]": 78.7}
{"SMILES": "N[C@@H](Cc1ccc(O)c(O)c1)C(=O)O", "viability [%]": 88.3}
{"SMILES": "O=c1ccc2ccc(O)c(O)c2o1", "viability [%]": 103}
{"SMILES": "CC[C@H](C)C[C@H](C)CCCCCCCCC(=O)N[C@H]1C[C@@H](O)[C@@H](NCCN)NC(=O)[C@@H]2[C@@H](O)CCN2C(=O)[C@H]([C@H](O)CCN)NC(=O)[C@H]([C@H](O)[C@@H](O)c2ccc(O)cc2)NC(=O)[C@@H]2C[C@@H](O)CN2C(=O)[C@H]([C@@H](C)O)NC1=O", "viability [%]": 15.8}
{"SMILES": "CO/N=C(\\C(=O)N[C@@H]1C(=O)N2C(C(=O)OCOC(=O)C(C)(C)C)=C(/C=C\\c3scnc3C)CS[C@H]12)c1csc(N)n1", "viability [%]": 60.4}
{"SMILES": "Cc1nc(-c2ccc(OCC(C)C)c(C#N)c2)sc1C(=O)O", "viability [%]": 94.8}
